Experimental data gathered from unrelated publications.
Several values in a cell are separate wells, animals, samples, runs or records. ± marks the error that the study gave.
HTR1B: 5-hydroxytryptamine receptor 1B (HTR1B, Homo sapiens, UniProt P28222)
UniProt P28222, sequence (whole entry, looked up): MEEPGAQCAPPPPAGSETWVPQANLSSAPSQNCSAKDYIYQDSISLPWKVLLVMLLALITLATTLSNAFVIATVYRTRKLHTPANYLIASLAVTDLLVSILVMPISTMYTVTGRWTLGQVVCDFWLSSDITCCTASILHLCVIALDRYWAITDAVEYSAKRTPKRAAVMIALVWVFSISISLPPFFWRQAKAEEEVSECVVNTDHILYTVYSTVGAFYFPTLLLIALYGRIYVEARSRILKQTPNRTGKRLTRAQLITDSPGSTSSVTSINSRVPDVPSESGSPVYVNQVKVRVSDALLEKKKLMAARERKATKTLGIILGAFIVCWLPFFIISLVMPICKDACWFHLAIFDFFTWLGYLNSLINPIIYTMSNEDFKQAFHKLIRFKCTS
Beta sliding clamp: Beta sliding clamp (Escherichia coli, UniProt P0A988)
UniProt P36107, sequence (whole entry, looked up): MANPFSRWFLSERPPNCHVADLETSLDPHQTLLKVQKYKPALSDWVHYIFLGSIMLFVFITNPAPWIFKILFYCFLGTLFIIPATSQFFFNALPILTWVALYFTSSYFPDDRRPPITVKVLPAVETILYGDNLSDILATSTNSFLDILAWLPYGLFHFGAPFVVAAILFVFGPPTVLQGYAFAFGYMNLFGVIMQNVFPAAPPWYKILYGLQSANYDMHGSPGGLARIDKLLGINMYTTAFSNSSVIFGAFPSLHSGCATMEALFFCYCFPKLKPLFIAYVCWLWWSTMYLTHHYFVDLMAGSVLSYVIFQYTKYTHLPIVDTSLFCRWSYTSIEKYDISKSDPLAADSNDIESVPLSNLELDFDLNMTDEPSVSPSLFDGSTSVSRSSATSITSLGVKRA
UniProt Q6DWJ6, sequence (whole entry, looked up): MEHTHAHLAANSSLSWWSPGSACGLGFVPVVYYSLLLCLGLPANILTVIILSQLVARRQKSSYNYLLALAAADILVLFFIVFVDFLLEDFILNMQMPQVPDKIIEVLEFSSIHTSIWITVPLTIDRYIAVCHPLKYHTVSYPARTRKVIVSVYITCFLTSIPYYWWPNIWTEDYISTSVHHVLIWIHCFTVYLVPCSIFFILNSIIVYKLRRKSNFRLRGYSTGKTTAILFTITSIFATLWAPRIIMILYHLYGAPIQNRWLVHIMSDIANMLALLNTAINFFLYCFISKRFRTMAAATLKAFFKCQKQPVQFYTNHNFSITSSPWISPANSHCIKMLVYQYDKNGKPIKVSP
UniProt P0A988, sequence (whole entry, looked up): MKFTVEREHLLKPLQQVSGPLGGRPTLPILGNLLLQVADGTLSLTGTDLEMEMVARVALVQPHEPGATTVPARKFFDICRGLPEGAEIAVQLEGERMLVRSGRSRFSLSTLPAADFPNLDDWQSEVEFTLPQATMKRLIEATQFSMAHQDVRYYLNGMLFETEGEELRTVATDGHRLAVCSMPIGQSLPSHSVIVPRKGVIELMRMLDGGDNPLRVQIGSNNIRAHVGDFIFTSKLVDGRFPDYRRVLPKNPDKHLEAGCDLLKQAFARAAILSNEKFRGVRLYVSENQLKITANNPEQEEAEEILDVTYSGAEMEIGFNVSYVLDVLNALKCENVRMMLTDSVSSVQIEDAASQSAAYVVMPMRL
UniProt Q06346, sequence (whole entry, looked up): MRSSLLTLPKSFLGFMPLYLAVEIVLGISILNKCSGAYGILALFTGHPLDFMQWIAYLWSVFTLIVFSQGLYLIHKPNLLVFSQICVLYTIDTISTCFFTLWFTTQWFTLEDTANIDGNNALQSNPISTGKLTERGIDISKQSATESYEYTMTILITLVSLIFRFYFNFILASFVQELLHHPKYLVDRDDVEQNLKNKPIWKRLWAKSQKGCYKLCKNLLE
UniProt Q9Y2J8, sequence (whole entry, looked up): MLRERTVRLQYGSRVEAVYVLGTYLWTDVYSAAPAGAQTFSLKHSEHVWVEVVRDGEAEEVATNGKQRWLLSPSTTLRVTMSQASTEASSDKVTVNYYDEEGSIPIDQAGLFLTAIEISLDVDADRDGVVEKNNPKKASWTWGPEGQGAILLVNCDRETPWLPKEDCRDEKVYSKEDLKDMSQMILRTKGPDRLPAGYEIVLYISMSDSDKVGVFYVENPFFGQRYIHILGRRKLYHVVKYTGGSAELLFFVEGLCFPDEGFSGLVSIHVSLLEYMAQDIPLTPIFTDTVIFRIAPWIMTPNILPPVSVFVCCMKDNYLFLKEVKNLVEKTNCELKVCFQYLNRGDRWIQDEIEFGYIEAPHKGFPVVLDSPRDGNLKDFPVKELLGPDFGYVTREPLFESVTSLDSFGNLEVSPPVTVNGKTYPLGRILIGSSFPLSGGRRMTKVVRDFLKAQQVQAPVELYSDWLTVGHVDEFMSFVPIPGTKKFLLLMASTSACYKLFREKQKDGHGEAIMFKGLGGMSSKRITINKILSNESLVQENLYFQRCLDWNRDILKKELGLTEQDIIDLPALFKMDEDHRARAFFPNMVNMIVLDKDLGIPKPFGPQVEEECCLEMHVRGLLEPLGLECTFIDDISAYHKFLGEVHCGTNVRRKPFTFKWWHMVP
UniProt Q13526, sequence (whole entry, looked up): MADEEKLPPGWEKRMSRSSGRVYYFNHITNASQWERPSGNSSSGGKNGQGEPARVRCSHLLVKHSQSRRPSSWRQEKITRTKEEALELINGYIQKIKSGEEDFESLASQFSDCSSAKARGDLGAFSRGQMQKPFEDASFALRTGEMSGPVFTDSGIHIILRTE
UniProt O43148, sequence (whole entry, looked up): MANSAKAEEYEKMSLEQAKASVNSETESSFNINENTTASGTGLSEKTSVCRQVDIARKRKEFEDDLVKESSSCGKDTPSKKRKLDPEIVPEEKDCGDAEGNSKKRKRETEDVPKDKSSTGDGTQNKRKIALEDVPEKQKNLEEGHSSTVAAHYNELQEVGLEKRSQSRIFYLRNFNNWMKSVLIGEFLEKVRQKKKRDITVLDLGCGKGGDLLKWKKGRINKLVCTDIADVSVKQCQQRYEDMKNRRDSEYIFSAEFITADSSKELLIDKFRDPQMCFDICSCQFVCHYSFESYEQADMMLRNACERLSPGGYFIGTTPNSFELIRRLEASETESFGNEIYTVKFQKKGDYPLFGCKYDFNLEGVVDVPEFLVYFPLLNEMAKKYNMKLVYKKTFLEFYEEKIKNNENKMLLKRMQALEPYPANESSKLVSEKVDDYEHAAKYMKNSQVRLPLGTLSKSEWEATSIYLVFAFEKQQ
UniProt P08510, sequence (whole entry, unmodified, looked up): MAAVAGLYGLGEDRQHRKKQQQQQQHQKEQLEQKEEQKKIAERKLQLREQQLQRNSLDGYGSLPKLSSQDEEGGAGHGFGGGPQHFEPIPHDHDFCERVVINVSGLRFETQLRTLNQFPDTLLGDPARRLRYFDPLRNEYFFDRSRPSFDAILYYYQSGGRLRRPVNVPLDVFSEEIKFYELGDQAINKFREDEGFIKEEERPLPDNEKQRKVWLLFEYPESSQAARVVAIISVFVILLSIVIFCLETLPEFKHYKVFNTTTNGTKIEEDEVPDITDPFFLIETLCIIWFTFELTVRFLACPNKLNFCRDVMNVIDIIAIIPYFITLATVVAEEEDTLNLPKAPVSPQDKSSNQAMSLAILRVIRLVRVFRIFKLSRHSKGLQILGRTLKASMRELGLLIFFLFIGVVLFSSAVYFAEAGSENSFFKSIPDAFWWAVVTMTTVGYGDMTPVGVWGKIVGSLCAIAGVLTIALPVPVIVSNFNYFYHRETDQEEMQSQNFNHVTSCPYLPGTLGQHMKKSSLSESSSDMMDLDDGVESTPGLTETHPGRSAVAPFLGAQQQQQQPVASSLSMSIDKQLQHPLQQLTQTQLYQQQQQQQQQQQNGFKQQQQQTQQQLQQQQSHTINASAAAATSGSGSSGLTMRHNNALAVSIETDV
UniProt P0AC13, sequence (whole entry, looked up): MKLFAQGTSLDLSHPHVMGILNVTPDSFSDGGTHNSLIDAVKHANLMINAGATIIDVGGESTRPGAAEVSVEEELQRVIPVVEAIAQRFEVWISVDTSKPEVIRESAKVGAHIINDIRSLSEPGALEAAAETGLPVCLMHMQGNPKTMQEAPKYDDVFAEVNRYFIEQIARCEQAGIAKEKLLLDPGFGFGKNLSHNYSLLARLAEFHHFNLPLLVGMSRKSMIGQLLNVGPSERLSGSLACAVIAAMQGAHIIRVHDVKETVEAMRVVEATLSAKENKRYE
UniProt Q09013, sequence (whole entry, looked up): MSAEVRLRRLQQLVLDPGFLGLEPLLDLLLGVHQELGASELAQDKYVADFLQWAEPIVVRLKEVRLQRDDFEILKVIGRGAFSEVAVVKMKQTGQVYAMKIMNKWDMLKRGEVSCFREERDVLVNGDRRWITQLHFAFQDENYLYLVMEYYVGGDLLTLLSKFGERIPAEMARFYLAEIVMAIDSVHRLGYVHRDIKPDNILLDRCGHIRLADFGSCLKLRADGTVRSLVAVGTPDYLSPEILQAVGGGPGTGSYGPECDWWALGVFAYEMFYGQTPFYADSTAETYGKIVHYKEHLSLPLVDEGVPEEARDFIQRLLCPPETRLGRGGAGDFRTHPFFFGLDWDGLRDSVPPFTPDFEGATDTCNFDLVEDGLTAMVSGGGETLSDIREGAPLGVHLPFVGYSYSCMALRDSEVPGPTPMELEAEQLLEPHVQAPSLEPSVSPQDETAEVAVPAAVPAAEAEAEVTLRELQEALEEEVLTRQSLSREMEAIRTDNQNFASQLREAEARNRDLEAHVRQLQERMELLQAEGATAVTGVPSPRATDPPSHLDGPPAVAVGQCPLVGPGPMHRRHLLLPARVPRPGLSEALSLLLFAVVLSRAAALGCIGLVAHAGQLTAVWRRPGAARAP

O=C(N[C@@H]1c2ccccc2C[C@H]1N1CCCC1)c1ccc(-c2ccnc3[nH]ccc23)nc1  remaining binding (PRKCD (Homo sapiens, UniProt Q05655); binding, competition with immobilised ligand; 3 µM): 5.6%
CN(C)[C@H]1C[C@@]23CC[C@@]4(O2)C(=CC[C@]2(C)[C@@H](c5ccc6ccncc6c5)CC[C@H]24)C=C3[C@@H](O)[C@@H]1O  inhibition (EIF2AK2 (Homo sapiens, UniProt P19525); ATP probe labelling, inhibitor, KiNativ profiling; 0.1 µM): -2.2%
CC[C@@H](C)[C@@H]1NC(=O)[C@@H]2CCCN2C(=O)[C@H](Cc2ccccc2)N(C)C(=O)[C@H](Cc2ccccc2)NC(=O)[C@H](C(C)C)N(C)C(=O)[C@@H]([C@H](C)CC)OC(=O)[C@H](C(C)(C)O)N(C)C(=O)[C@H](CC(C)C)NC(=O)[C@H](C(C)C)N(C)C1=O  normalized IPC synthase activity (AUR1/KEI1 (Saccharomyces cerevisiae, UniProt P36107+Q06346); enzyme activity, inhibitor; concentration not given; relative to: DMSO): 0
C#CCCCCOc1ccc2c(c1)CCCN2C(=O)CCl  reactivity ratio (ABCC9 (Homo sapiens, UniProt O60706); mass spectrometry profiling; H460 cell lysate; 100 µM over 10 µM, UniProt O60706; relative to: high over low concentration): 1.6
CC(C)[C@H]1NC(=O)C[C@H]2/C=C/CCSSC[C@@H](NC1=O)C(=O)N[C@H](Cc1cccc3ccccc13)C(=O)NCC(=O)O2  inhibition (TNK1 (Homo sapiens, UniProt Q13470); enzyme activity, inhibitor; 10 µM): 0.378%
C[C@H](NCc1ccc(-c2ccc(C(F)(F)F)cc2)cc1)C(N)=O  inhibition (GABBR1 (Homo sapiens, UniProt Q9UBS5); radioligand binding, SafetyScreen panel; 1 µM, species human, together with: 4.0 nM [3H]CGP-54626): -4%
O=C1NC(=O)c2c1c1cc(F)c[n+]3c1c1c2c2cc(O)ccc2[n]1[Ru-4]312([N]=C=S)[S+]3CC[S+]1CC[S+]2CC3 (stereo not drawn)  remaining activity (DMPK (Homo sapiens, UniProt Q09013); enzyme activity; 100 nM, human enzyme, together with: 10 µM ATP; relative to: untreated): 112%
CCCCC/C=C\C/C=C\C/C=C\C/C=C\CCCC(=O)NCCc1ccc(O)c(O)c1  maximal open probability (Trpv1 (Mus musculus, UniProt Q704Y3, N552Q); ion current, agonist, whole-cell patch clamp; N552Q; relative to: 3 mM 2-APB): 0.82 ± 0.15
CC[C@H](C)[C@H](NC(=O)[C@H](CCCNC(=N)N)NC(=O)[C@H](CCCNC(=N)N)NC(=O)[C@H](CC(C)C)NC(=O)[C@H](Cc1ccccc1)NC(=O)CNC(=O)CNC(=O)[C@@H](N)Cc1ccc(O)cc1)C(=O)N[C@@H](CCCNC(=N)N)C(=O)N1CCC[C@H]1C(=O)N[C@@H](CCCCN)C(=O)N[C@@H](CC(C)C)C(=O)N[C@@H](CCCCN)C(=O)O  Emax (GPR139 (Homo sapiens, UniProt Q6DWJ6); G protein activation, agonist, BRET, refers to: Gα15; HEK-293T/17; 40 µM; relative to: GαoA response): 31.4% and 25.9%
CC(C)CC(O)(CC(C)C)c1cn(C(=O)N2CCCC2)nn1  activity ratio (Abhd12 (Mus musculus, UniProt Q99LR1); enzyme activity, inhibitor, competitive ABPP-SILAC; mouse T-cells; concentration not given, 4 h, treated in situ; relative to: DMSO): 1.32
CN(CC1CC1)[C@H]1COC[C@H]2NCCN(C(=O)Cc3ccc(Cl)c(Cl)c3)[C@@H]21 (relative stereo)  Emax (OPRK1 (Homo sapiens, UniProt P41145); agonist; 0.3333 h): 79 ± 27%
Cc1c(/N=N/c2ccccc2)cccc1[B-](F)(F)F.[K+]  switching factor (Chymotrypsinogen A (Bos taurus, UniProt P00766); enzyme activity, inhibitor; together with: Suc-AAPF-AMC; relative to: Ki cis over Ki trans): 2.6 ± 0.5
O=C(NC1CCN(c2ncnc3[nH]cnc23)CC1)c1cccc(NS(=O)(=O)c2ccc(C(F)(F)F)cc2)c1  inhibition (RNMT (Homo sapiens, UniProt O43148); enzyme activity, inhibitor; 0.7812 µM): 4.89%
Cn1nc(CCN)c(=O)c2c(=O)[nH]c(N)nc21  melting temperature (folP (Bacteria, UniProt P0AC13); CETSA HiBiT; whole cells): 61.7 °C
O=C(CCc1ccc(Br)cc1)N[C@H]1CCOC1=O  potency ratio (lasR (Pseudomonas aeruginosa, UniProt P25084); reporter gene, antagonist; relative to: IC50 PAO-JP2 over E. coli JLD271): 75
CCc1nnc(-c2c(OC)cc(-c3cnc4cc(-c5cnn(C)c5)ccn34)cc2OC)o1  remaining binding (HTR1B; antagonist radioligand, radioligand binding; 10 µM, SafetyScreen44 5-HT1B replicate 2; lower = stronger displacement): 123%
C[C@@H]1NC(=O)[C@H](CCCNC(=N)N)NC(=O)[C@H](Cc2ccc3ccccc3c2)NC(=O)[C@H]2CCCCN2C(=O)[C@@H]([C@H](C)O)NC(=O)[C@H](Cc2ccc(F)cc2)NC(=O)[C@@H](Cc2ccccc2)NC(=O)c2cc3cc(c2)C(=O)NC[C@H](NC(=O)[C@@H](Cc2ccccc2)NC1=O)C(=O)N[C@@H](Cc1ccccc1)C(=O)N[C@@H](Cc1ccc2ccccc2c1)C(=O)N[C@@H](CCCNC(=N)N)C(=O)N[C@@H](CCCNC(=N)N)C(=O)N[C@@H](CCCNC(=N)N)C(=O)N[C@@H](CCCNC(=N)N)C(=O)N[C@H](C(=O)N[C@@H](CCCCNC(=S)Nc1ccc2c(c1)C(=O)OC21c2ccc(O)cc2Oc2cc(O)ccc21)C(N)=O)CNC3=O  binding affinity improvement (PIN1 (Homo sapiens, UniProt Q13526); fluorescence anisotropy; concentration not given; relative to: parent peptide): ~2 fold
N[C@H](C(=O)N1CCCC1)C1CCN(c2nccc3c(-c4ncc(Cl)cc4Cl)cccc23)CC1  melting temperature (PADI2 (Homo sapiens, UniProt Q9Y2J8); thermal shift; 0.03013 µM): 59.2 °C and 58.4 °C
Cc1ccc(N2CC3CCC(C2)N3C)cc1C(=O)N[C@H](C)c1cc(-c2cnn(C)c2)nc2ccccc12  remaining activity (Cathepsin B (CTSB, Homo sapiens, UniProt P07858); enzyme activity; 10 µM): 102%
CN(C)CCCSC(=S)N1CCN(C(=O)/C=C/c2coc3ccccc3c2=O)CC1  MST response (Nucleoprotein (N, Tomato spotted wilt virus, UniProt P25999, R94A); binding, microscale thermophoresis; 250 µM; dose series): 846 a.u.
CC#CC(=O)NC[C@H](NC(=O)[C@H](CC1CCCCC1)NC(=O)[C@H](CCC(N)=O)NC(C)=O)C(=O)N[C@@H](CC(C)C)C(=O)N[C@@H](Cc1ccccc1)C(=O)O  ΔG (Beta sliding clamp; binding, isothermal titration calorimetry; 25 °C): -9.8 kcal/mol
Cc1cc(-c2ccc3ccccc3c2)nnc1NCCN1CCN(C)CC1  antagonist activity (HTR1B; antagonist; concentration not given): negative
C=CC(=O)NC[C@H](NC(=O)[C@H](CC1CCCCC1)NC(=O)[C@H](CCC(N)=O)NC(C)=O)C(=O)N[C@@H](CC(C)C)C(=O)N[C@@H](Cc1ccccc1)C(=O)O  ΔH (Beta sliding clamp; binding, isothermal titration calorimetry; 22 °C): -11.4 kcal/mol
CSCC[C@@H](N)C(=O)N[C@H](C)C(=O)N[C@H](C)C(=O)N[C@@H](C(=O)N[C@H](C)C(=O)NCC(=O)N[C@H](CC(C)C)C(=O)N[C@H](Cc1ccc(O)cc1)C(=O)NCC(=O)N[C@H](CC(C)C)C(=O)NCC(=O)N[C@H](CCC(=O)O)C(=O)N[C@H](CC(=O)O)C(=O)N[C@H](CCCNC(=N)N)C(=O)N[C@H](CCC(N)=O)C(=O)N[C@H](Cc1c[nH]cn1)C(=O)N[C@H](CCCNC(=N)N)C(=O)N[C@H](CCCCN)C(=O)N[C@H](CCCCN)C(=O)N[C@H](CCC(N)=O)C(N)=O)C(C)C  Hill coefficient (Sh, DEL6-46 (Drosophila melanogaster, UniProt P08510); ion current, blocker, inside-out patch clamp; +90 mV): 0.83
CCCO[C@H]1[C@H](O)[C@@H](N)[C@@H](O[C@H]2[C@H](O[C@@H]3O[C@H](CO)[C@@H](O[C@H]4O[C@@H](CN)[C@@H](O)[C@H](O)[C@H]4N)[C@H]3O)[C@@H](O)[C@H](N)C[C@@H]2N)O[C@@H]1CO  specific binding (Htr1b (Rattus norvegicus, UniProt P28564); radioligand binding; 10 µM, 1% DMSO): -13%
CCc1n[nH]c(NC(=O)c2ccc3c(c2)nnn3C)n1  Hill slope (Genome polyprotein, 3C protease (rhinovirus B14, UniProt P03303); protease activity, SAMDI-MS): 1.34
CS(C)(=O)=Nc1ccc(-c2ccc(-c3nc4cc(O[C@@H]5CO[C@H]6[C@@H]5OC[C@H]6O)[nH]c4cc3F)cc2)cc1  inhibition (DDR2 (Homo sapiens, UniProt Q16832); enzyme activity, inhibitor; 10 µM): -8%

A few entries again:
CC(C)CC(O)(CC(C)C)c1cn(C(=O)N2CCCC2)nn1  activity ratio (Abhd12 (Mus musculus, UniProt Q99LR1); enzyme activity, inhibitor, competitive ABPP-SILAC; mouse T-cells; concentration not given, 4 h, treated in situ; relative to: DMSO): 1.32
CC(C)[C@H]1NC(=O)C[C@H]2/C=C/CCSSC[C@@H](NC1=O)C(=O)N[C@H](Cc1cccc3ccccc13)C(=O)NCC(=O)O2  inhibition (TNK1 (Homo sapiens, UniProt Q13470); enzyme activity, inhibitor; 10 µM): 0.378%
O=C1NC(=O)c2c1c1cc(F)c[n+]3c1c1c2c2cc(O)ccc2[n]1[Ru-4]312([N]=C=S)[S+]3CC[S+]1CC[S+]2CC3 (stereo not drawn)  remaining activity (DMPK (Homo sapiens, UniProt Q09013); enzyme activity; 100 nM, human enzyme, together with: 10 µM ATP; relative to: untreated): 112%
CCCO[C@H]1[C@H](O)[C@@H](N)[C@@H](O[C@H]2[C@H](O[C@@H]3O[C@H](CO)[C@@H](O[C@H]4O[C@@H](CN)[C@@H](O)[C@H](O)[C@H]4N)[C@H]3O)[C@@H](O)[C@H](N)C[C@@H]2N)O[C@@H]1CO  specific binding (Htr1b (Rattus norvegicus, UniProt P28564); radioligand binding; 10 µM, 1% DMSO): -13%
